Measured values from different studies.
A part holds a random share of what one study measured. Substitutions count along the parent as printed.
Sequence of UniProt P10721 (whole entry, unmodified, looked up): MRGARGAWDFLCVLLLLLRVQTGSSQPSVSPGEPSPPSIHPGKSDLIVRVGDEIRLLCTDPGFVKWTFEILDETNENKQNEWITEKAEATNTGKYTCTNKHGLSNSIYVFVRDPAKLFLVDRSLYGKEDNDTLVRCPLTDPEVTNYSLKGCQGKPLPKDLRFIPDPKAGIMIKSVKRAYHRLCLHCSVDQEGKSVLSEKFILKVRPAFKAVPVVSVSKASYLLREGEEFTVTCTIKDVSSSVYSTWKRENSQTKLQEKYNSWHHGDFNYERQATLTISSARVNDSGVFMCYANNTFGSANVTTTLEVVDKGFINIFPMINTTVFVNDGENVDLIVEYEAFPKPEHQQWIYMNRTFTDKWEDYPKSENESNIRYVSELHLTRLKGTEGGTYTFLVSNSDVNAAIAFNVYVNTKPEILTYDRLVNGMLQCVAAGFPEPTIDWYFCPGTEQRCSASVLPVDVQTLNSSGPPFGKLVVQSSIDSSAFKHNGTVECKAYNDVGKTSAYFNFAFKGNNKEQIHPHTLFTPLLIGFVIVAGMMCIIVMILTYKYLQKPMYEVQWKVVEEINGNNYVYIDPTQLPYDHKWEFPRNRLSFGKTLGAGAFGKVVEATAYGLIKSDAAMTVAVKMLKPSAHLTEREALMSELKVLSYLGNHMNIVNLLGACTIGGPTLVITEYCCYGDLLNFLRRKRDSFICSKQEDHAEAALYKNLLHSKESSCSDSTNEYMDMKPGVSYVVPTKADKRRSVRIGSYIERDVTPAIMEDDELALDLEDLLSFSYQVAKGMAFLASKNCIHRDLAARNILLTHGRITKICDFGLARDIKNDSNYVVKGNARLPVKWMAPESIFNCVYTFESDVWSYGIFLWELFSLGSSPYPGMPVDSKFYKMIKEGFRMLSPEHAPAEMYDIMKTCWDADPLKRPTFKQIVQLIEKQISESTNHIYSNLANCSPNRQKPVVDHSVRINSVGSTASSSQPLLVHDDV
Sequence of UniProt P49759 (whole entry, looked up): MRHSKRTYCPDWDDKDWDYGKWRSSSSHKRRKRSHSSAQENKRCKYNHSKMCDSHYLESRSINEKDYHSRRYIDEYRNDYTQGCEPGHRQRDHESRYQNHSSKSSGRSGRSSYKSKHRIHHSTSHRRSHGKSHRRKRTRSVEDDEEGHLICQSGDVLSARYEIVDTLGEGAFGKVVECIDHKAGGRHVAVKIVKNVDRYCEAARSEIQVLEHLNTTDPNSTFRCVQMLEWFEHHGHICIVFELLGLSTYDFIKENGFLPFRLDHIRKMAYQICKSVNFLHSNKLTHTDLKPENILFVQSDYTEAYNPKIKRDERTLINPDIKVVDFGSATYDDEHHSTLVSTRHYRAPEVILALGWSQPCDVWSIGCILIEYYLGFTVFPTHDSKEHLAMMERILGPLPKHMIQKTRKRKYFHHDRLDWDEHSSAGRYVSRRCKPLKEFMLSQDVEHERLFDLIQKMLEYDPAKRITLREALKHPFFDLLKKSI
Sequence of UniProt P54756 (whole entry, looked up): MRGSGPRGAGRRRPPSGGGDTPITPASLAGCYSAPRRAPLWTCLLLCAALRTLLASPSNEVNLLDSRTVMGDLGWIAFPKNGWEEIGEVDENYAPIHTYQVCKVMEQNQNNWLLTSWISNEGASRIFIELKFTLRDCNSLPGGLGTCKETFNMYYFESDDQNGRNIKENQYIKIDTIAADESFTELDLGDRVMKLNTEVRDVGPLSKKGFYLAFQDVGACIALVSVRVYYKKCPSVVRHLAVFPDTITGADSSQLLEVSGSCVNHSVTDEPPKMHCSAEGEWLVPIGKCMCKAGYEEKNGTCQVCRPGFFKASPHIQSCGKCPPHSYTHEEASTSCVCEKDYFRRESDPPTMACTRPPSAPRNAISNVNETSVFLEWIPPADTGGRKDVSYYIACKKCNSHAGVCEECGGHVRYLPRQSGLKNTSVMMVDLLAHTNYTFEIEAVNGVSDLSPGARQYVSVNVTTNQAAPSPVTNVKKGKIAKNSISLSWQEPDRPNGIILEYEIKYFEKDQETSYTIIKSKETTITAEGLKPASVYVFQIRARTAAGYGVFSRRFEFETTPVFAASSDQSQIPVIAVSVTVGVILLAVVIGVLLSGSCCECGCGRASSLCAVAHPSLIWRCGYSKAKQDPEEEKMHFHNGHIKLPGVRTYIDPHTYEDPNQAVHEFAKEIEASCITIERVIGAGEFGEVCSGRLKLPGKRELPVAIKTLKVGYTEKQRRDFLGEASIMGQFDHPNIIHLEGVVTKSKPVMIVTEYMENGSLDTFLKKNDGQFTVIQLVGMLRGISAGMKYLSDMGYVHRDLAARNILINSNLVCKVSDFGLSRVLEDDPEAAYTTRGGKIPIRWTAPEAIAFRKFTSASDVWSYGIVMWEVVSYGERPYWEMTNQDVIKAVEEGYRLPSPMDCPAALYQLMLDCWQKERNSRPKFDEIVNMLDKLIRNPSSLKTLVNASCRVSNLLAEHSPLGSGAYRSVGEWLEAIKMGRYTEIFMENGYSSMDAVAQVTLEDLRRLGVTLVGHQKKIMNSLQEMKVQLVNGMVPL
Sequence of UniProt Q15746 (whole entry, looked up): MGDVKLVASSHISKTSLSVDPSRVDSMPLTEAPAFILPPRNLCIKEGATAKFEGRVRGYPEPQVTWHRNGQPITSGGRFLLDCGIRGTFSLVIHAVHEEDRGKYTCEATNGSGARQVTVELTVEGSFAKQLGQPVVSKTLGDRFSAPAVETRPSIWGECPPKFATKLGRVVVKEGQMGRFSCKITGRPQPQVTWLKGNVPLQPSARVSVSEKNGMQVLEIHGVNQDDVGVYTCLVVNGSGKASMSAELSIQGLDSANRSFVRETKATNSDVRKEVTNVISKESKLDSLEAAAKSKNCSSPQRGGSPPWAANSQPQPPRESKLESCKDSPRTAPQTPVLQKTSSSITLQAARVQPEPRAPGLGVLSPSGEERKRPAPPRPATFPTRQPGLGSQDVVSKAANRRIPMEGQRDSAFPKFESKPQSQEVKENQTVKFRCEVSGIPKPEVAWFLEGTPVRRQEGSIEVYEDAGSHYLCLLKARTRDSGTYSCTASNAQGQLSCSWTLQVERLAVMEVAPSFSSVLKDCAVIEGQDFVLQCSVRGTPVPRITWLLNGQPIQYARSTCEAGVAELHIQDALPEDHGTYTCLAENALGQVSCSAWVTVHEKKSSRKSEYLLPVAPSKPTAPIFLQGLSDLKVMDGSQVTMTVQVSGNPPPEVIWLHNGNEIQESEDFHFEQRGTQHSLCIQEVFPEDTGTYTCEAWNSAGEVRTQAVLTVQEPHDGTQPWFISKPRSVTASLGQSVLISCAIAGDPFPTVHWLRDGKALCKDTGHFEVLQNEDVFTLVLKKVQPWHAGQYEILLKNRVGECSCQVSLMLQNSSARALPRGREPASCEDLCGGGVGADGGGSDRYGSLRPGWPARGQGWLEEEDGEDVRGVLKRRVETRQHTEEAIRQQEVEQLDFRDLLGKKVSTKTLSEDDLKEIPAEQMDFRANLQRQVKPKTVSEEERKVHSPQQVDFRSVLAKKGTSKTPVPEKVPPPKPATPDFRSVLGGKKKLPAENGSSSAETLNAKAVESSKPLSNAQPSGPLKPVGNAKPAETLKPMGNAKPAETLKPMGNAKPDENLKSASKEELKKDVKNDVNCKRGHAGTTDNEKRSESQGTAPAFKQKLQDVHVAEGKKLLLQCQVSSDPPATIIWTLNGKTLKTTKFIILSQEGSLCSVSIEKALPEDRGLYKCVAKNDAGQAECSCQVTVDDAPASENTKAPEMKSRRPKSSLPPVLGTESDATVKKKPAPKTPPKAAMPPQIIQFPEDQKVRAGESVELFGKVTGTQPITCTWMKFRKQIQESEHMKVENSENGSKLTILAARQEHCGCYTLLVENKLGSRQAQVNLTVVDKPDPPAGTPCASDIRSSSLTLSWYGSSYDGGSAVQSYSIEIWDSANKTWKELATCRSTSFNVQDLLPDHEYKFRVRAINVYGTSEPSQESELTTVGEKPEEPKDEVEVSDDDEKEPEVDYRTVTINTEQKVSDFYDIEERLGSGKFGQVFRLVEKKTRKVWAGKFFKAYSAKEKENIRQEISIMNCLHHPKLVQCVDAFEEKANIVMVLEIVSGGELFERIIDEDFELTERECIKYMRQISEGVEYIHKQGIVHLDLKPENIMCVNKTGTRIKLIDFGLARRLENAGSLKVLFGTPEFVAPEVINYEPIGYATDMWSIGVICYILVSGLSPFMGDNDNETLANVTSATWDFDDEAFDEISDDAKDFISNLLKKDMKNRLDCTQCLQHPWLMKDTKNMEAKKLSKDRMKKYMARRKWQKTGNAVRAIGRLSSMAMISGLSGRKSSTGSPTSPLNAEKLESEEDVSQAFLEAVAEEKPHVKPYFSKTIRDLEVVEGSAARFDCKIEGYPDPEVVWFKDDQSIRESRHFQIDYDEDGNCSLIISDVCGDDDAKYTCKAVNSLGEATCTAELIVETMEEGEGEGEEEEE
Sequence of UniProt Q15208 (whole entry, looked up): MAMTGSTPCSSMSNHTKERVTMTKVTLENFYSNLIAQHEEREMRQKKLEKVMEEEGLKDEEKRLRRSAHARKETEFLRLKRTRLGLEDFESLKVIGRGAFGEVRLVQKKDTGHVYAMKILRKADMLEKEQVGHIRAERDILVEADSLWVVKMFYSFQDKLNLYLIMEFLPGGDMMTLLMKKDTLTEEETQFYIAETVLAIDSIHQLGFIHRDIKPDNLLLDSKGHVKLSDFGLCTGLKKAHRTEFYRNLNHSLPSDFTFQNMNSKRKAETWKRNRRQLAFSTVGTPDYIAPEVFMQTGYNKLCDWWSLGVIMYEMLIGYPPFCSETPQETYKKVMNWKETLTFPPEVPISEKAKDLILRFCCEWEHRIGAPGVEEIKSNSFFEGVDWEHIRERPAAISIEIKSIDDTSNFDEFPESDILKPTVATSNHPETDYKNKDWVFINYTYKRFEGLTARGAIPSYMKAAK

Block 1 — effect on: cell-free assay; method: competition with immobilised ligand; tested at: 1 µM
Compound: O=C1NC(c2ccccn2)Sc2ccccc21 (stereo not shown)
It gave 92% for remaining binding (EGFR (Homo sapiens, UniProt P00533, del752-759)).
The remaining binding was 94% (SNRK (Homo sapiens, UniProt Q9NRH2)).
STK38 (Homo sapiens, UniProt Q15208) — remaining binding: 76%.
CLK1 (Homo sapiens, UniProt P49759) — remaining binding: 98%.
The remaining binding was 96% (CIT (Homo sapiens, UniProt O14578)).
The remaining binding was 100% (Tyrosine-protein kinase ABL1, phosphorylated (ABL1, Homo sapiens, UniProt P00519, M351T)).
MYLK (Homo sapiens, UniProt Q15746) — remaining binding: 77%.
For MAP2K7 (Homo sapiens, UniProt O14733): remaining binding read 87%.
It gave 100% for remaining binding (NEK10 (Homo sapiens, UniProt Q6ZWH5)).
The remaining binding was 92% (MAP3K14 (Homo sapiens, UniProt Q99558)).
For MAP4K5 (Homo sapiens, UniProt Q9Y4K4): remaining binding read 100%.
The remaining binding was 94% (MAP3K11 (Homo sapiens, UniProt Q16584)).
LATS2 (Homo sapiens, UniProt Q9NRM7) — remaining binding: 70%.
KIT (Homo sapiens, UniProt P10721, V559D/V654A) — remaining binding: 87%.
It gave 100% for remaining binding (RAF1 (Homo sapiens, UniProt P04049)).
The remaining binding was 85% (EPHA5 (Homo sapiens, UniProt P54756)).
KIT (Homo sapiens, UniProt P10721) — remaining binding: 89%.

Block 2 — method: PRP chromatography estimate; matrix: 1,9-decadiene/PBS; pH: 7.4
For `CC(C)C[C@@H]1NC(=O)[C@H](C(C)C)NC(=O)[C@H](C)NC(=O)[C@H](CC(C)C)NC(=O)[C@H](C(C)C)NC(=O)[C@H](CC(C)C)NC(=O)[C@@H](CC(C)C)NC1=O`, the logD was 0.358.
For `CCC[C@@H]1NC(=O)CSC[C@@H](C(=O)OCC)N(C)C(=O)[C@H](CC(C)C)NC(=O)[C@H](C)N(C)C(=O)[C@H](CC(C)C)NC(=O)[C@H](C)N(C)C(=O)[C@H]2CCCN2C(=O)[C@@H](CC(C)C)NC(=O)CN(C)C1=O`, the logD was 0.253.
With `CCC[C@H]1NC(=O)CSC[C@@H](C(=O)OCC)N(C)C(=O)[C@H](CC(C)C)NC(=O)[C@@H](C)N(C)C(=O)[C@H](CC(C)C)NC(=O)[C@H](C)N(C)C(=O)[C@@H](C)N(C)C(=O)[C@@H](CC(C)C)NC(=O)CN(C)C1=O` the logD was -0.615.
The logD of `CC(C)C[C@@H]1NC(=O)[C@H](CC(C)C)NC(=O)[C@@H](C(C)C)NC(=O)[C@H](Cc2cscn2)NC(=O)[C@@H](Cc2cscn2)NC(=O)[C@H](Cc2cscn2)NC(=O)[C@H](CCC(=O)N2CCCC2)NC1=O` is reported as -2.74.

Block 3 — host: mouse; matrix: microsomes or S9; tested at: 2 µM; time: 0.5 h
`N#Cc1nc(-c2ccc(Br)o2)oc1N1CCC(C(=O)Nc2cnccc2O)CC1` gave a remaining compound of 73.3%.
The remaining compound of `CCOC(=O)c1c(NC(=O)CCC(=O)N(CC)CC)sc2c1CC(C)(C)OC2` is reported as 0.845%.
`O=C(O)/C=C/c1ccc(NC(=O)Cc2c[nH]c3ccccc23)cc1` gave a remaining compound of 97.1%.
The remaining compound of `Cc1nc(C)c2c(C)c(CNCC(C)(C)N3CCOCC3)sc2n1` is reported as 0.39%.
`COc1c(Cl)c(-c2cc(C3(O)CCCCC3)on2)c(OC)c2c1OCO2` gave a remaining compound of 1.23%.

Block 4 — target: ATF5, bZIP domain (human); method: DHFR protein complementation; matrix: yeast; relative to: wild-type JUN-FOS pair; reading: higher = stronger binding
Notes: single substitutions, most at no-binding floor
Parent: JUN, bZIP domain (human); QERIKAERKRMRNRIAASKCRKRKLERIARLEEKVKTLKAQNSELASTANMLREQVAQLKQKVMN; partner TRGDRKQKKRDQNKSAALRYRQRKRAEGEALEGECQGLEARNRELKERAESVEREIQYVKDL
For `V56H`, the binding fitness was -1.41 natural log.
For `S47N`, the binding fitness was -1.31 natural log.
`Q55S` gave a binding fitness of -1.46 natural log.
`Q41F` gave a binding fitness of -1.41 natural log.
`V56K` has a binding fitness of -1.49 natural log.
`K36P` has a binding fitness of -1.48 natural log.
The binding fitness of `L45H` is reported as -1.46 natural log.
`R53C` gave a binding fitness of -1.69 natural log.

Some of these lines once more (block 4):
`Q41F` gave a binding fitness of -1.41 natural log.
`R53C` gave a binding fitness of -1.69 natural log.
The binding fitness of `L45H` is reported as -1.46 natural log.
For `S47N`, the binding fitness was -1.31 natural log.
`Q55S` gave a binding fitness of -1.46 natural log.
